Results of several laboratories.
Each numbered part is a random draw from the data of one study; scales do not carry over between parts. Substitutions count along the parent as printed.

Study 1 — technique: DHFR PCA, deep sequencing; medium: yeast; added: (+)-ABA 0.0091 µM; baseline: wild-type fitted maximum; reading: higher = stronger binding
Target: ABI1, truncated, D143A, DHFR fusion (Arabidopsis thaliana)
Notes: methotrexate growth selection, single substitutions
Parent: PYL1, truncated, DHFR fusion (Arabidopsis thaliana); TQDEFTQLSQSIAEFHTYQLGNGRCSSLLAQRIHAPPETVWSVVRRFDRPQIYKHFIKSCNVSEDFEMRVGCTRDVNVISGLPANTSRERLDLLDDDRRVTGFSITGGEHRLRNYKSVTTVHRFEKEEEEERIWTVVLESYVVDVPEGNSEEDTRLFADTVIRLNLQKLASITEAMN; partner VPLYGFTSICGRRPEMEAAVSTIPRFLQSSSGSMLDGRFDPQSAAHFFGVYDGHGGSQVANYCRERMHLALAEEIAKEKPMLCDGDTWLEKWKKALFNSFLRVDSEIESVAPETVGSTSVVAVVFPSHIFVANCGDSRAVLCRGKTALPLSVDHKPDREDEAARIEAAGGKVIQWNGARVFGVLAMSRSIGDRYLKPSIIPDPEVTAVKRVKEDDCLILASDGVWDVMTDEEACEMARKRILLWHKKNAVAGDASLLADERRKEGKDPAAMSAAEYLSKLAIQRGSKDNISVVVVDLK
Change	relative binding score [%]
D95W	-6.2
V44Q	-4.03
S150A	22.5
E131N	58.4
F15L	1.64
G21H	15.8
I105Q	0.937
W41V	-0.249
V76H	-5.11
V137M	0.0313
H110W	98.8
R69Y	0.772
E152C	4.14
N149C	60.2
D144W	-1.87
T106N	3.08
C60Q	-0.69
V78C	30.8

Study 2 — target: CCNE2, cyclin fold, Cln2 fusion (human); technique: yeast growth competition, sequencing; medium: yeast; notes: strong parent motif; baseline: not given; reading: higher = stronger binding
Parent: WEE1 docking peptide (human); HKTFRKLRLFDTP; partner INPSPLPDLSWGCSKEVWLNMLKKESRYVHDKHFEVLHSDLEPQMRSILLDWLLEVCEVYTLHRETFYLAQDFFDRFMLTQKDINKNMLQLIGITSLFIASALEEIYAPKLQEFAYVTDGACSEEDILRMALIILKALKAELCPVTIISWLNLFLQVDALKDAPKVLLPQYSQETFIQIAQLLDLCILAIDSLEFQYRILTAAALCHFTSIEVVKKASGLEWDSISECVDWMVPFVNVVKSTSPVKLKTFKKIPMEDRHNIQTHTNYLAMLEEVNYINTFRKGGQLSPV
Change	normalised enrichment score
HKTFRKLRLFDTV [P13V]	0.934
HKTFRKLRPFDTP [L9P]	0.108
HKTWRKLRLFDTP [F4W]	1.33
HKTFRKLRLSDTP [F10S]	0.29
HKTFRKLRLFDDP [T12D]	1.51
HKTFRKERLFDTP [L7E]	0.301
HKTFRVLRLFDTP [K6V]	0.38
HKTFRKLRDFDTP [L9D]	-0.523
HKTFRKLRLFDEP [T12E]	1
HKTFRKLRLFDTC [P13C]	1.4
HKTFRKARLFDTP [L7A]	-0.584
HKHFRKLRLFDTP [T3H]	1.3
HKTFRKLRLFTTP [D11T]	1.26
HKTFNKLRLFDTP [R5N]	-5.48
HKTFRKLRLFDTG [P13G]	-0.302
HKTFRKLRLFSTP [D11S]	0.938
HKTFDKLRLFDTP [R5D]	0.0632
HKTFRKLRLFDTE [P13E]	0.403
HSTFRKLRLFDTP [K2S]	0.707
HKTFRTLRLFDTP [K6T]	0.647

Study 3 — technique: RNA Bind-n-Seq; molecule type: RNA; medium: in vitro; concentration: 200 nM; notes: whole 134-nt RNA, ends assumed; added: 150 mM KCl; baseline: input library; reading: higher = stronger binding
Target: Fragile X messenger ribonucleoprotein 1, C-terminal low-complexity region (Fmr1, Mus musculus, UniProt P35922)
Constant ends, left off below: GGGAGUUCUACAGUCCGACGAUC … UGGAAUUCUCGGGUGUCAAGG
Sequence	log2 enrichment
CACAGACAACACGCACCCACACAGACACAGAGGGAAGGGGUUGGGAUGGGGACAGGGUGCACAGCAGGGCGGGGUAGGACCCCUGCCCCU	1.37
AGUCCUGUGCUACACAUCGUAUGUACCGAAUCGGUUUUUGGUUUUUUUGGUUUUUGGAAAGUAUUAUGUUACGCCGUUCGGAUCUGCACU	-0.875
UGGAAGCUCAUACGACUGUGAAAGAAGCUGAGGAUGACAACAUCUCGGUCACAAUCCAGGCUGAAGAUGCCAUCACUCUGGAUUUUGAUG	-1.3
AAGUCCUGUGCUACACAUCGUAUGUACCGAAUCGGCCCCCGGGCCCCCGGCCCCCGGAAAGUAUUAUGUUACGCCGUUCGGAUCUGCACU	-0.389
ACCAUGCAGGUGGGCAUCUUUGGGAAGUGGGGCAAGGGGGGGAUAUGGAGGGGGGUAACACUUUGGGAACAGGUGGUCCCAGGUCGUUUC	0.618
UGGCCCUGGUGGCUUGCGGGGAGGAAGAGGUGGCCUCAUGGAUCGUGGUGGUCCCGGUGGAAUGUUCAGAGGUGGCCGUGGUGGAGACAG	0.121
UGGGAGGUGGACUUUGUUUAUUUUUUUAGCUCAUUUCCAGGGGUGGGAAUUUUUUUUUAAUAUGUGUCAUGAAUAAAGUUGUUUUUGAAA	-0.0274
GUCCUGUGCUACACAUCGUAUGUACCGAAUCGGCCCCCGGGCCCCCGGGGCCCCCGGGAAAGUAUUAUGUUACGCCGUUCGGAUCUGCAC	-0.544
CACAGACAAGACGCACCCACACAGACACAGAGGGAAGGGGUUGGGAUGGGGACAGGGUGCACAGCAGGGCGGGGUAGGACCCCAGCCCCU	1.18
UCCUGUGCUACACAUCGUAUGUACCGAAUCAAACCCCCCCAAAUUUAAAUUUUUUUAAAAAAGUAUUAUGUUACGCCGUUCGGAUCUGCA	0.457
CCUGUGCUACACAUCGUAUGUACCGAAUCGGGGAAAAAAAGGGGUGGGGUUUUUUUGGGGAAAGUAUUAUGUUACGCCGUUCGGAUCUGC	0.38
UGGGAGGUGGAUUUUGUAUAUUUUUUUAGCUCAUUUCCAGGGGUGGGAAUUUUUUUUUAAUAUGUGUCAUGAAUAAAGUUGUUUUUGAAA	0.358
AGUCCUGUGCUACACAUCGUAUGUACCGAAUCGGGGUGGGGUUUGGGGUUUUUGGGGAAAGUAUUAUGUUACGCCGUUCGGAUCUGCACU	1.28
CAAGUCCUGUGCUACACAUCGUAUGUACCGAAUCGGAGGUUUUUGGUUUUUUUGGAAAGUAUUAUGUUACGCCGUUCGGAUCUGCACUUC	-0.824

Study 4 — technique: RNA Bind-n-Seq; molecule type: RNA; medium: in vitro; concentration: 365 nM; baseline: no-protein control; reading: higher = stronger binding
Target: RNA binding protein fox-1 homolog 2, RRM domain, GST-SBP tag (RBFOX2, Homo sapiens, UniProt O43251-10, residues 100-194)
Notes: natural RNA segment, single round, ends assumed
Constant ends, left off below: GGGAGUUCUACAGUCCGACGAUC … UGGAAUUCUCGGGUGCCAA
Residues (chain): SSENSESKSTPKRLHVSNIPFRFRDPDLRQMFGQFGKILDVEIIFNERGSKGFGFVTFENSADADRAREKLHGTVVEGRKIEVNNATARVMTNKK
Sequence	RBNS enrichment (R)
ACACCAGAUCAUUUUUAUACAGGAUGUAGAGUACUGAUGCGGUUGAUCUUUUCCUUCAAGAACAUUCUUUUCUAUAGAAAAAUGAUUCCCUGUGAUCUUCUGGAAGCUCC	0.505
CAAAUUUCUGUGUUUUUUGUUUGUUUGUUUGUUUGUUUUUUCUUUGGGAACUGAAGUCAGAGGCACGAACACUAACUCUUAGCAUUUUUCUGUAGACUUUUUCUUCUGGC	1.29
GAUGAGUGACUUUAUUGAUUUGAGCAGCAUAUGCUGUGAUUGGCUGCCCUGCAAAUUUGUUUCCCUUAAGGAACCCUCACCAACUAUCUCUGCUGGAUUUGGGAGUUCCG	0.425
CUUUGGAUCCCUCUGUCCCAGAGCCACCCAGAACCCUGACUCUUGAGAAUCAAGAAAACACCCAGAAAGGCCUUAAUGACCUCAUAGGCACUCUUCCAAAAAGACAACAG	0.385
CUAGAUUACGCUACCUGUGUUUGAAAAUAUUGCGCUUUGCCUAACCUUCGGUGGAAUGUAUUGUUUCAGCAUAUUCUAUGUAUAAAAAAGUUUAAAGAUGUCUUCAAAGA	0.357
GAGGAGGAUGUUACUUCAUUUUAUAAAGAGGAAGGGGCCUGGGAGACUUGGGAAAAUGUUUCUGGAGAGGCUUUCAGAGUGGCUGGAAAAGGCUCUUGUUGCUGUAAUUU	1.18
UAUCAUAAGAUGGACGCCAUAAUCCUGAGGCCUCCUAGAGGCUGAGGGGGCAACGGUGUGAUCCAGCUGGCUCAUCCCAGCCCAGGUGGGCCAAUUAUUCAAUUUUCAAG	0.215
UCCGUAUUAAACGCAUUUGCAUUUUGAGAAGUGUCCUUCCCACUUCAGCCCUCCGGAGAGACUACCCUAGUCUUUCUGGGGUGUUUAUGUCCUCAGCUGAAGCCUGGCCU	2.58
AUCCUCCUGCCUCUGUCUCCUGAAUGUUGGGACAAAAGUAUGUGCCACCCCUACCCAGCGAGAACAGUUUUUAAUGAAAACUGAGCUAGAUUGUCCAGUUCUGGUAAACA	1.66
AGGAGAGAAGAAAGUGUAGAUAGUUAAAAGACUGCAGCUGCUGAAGUUCUGAGCCGGGCAAGUCGAGAGGGCUGUUGGACAGCUGCUUGUGGGCCCGGAGUAAUCAGGCA	0.621
AGGGGAUGUUGUUCUGAGUUGAGUCUAGUUUUUCUUUUGCACCAGGAAAUAAAACAGUUUUUGUUUGUUUCAGCUGGCCUCCUAUUUUGGACCCCCUGGGAAAGACAUGC	1.03
GCCAGGGCUCUGAAUUUAGCCUAACACUCAUCUUGGCUGUGGGCUUGGGAAGAAAUGGCCAUUAUUUACAGAUUGUAUUUGGUACAUAUUGUGUGAUACUUGAAAAGAUA	0.437

Some of these lines once more (study 3):
Sequence	log2 enrichment
ACCAUGCAGGUGGGCAUCUUUGGGAAGUGGGGCAAGGGGGGGAUAUGGAGGGGGGUAACACUUUGGGAACAGGUGGUCCCAGGUCGUUUC	0.618
CACAGACAAGACGCACCCACACAGACACAGAGGGAAGGGGUUGGGAUGGGGACAGGGUGCACAGCAGGGCGGGGUAGGACCCCAGCCCCU	1.18
AGUCCUGUGCUACACAUCGUAUGUACCGAAUCGGUUUUUGGUUUUUUUGGUUUUUGGAAAGUAUUAUGUUACGCCGUUCGGAUCUGCACU	-0.875
UGGGAGGUGGAUUUUGUAUAUUUUUUUAGCUCAUUUCCAGGGGUGGGAAUUUUUUUUUAAUAUGUGUCAUGAAUAAAGUUGUUUUUGAAA	0.358
AAGUCCUGUGCUACACAUCGUAUGUACCGAAUCGGCCCCCGGGCCCCCGGCCCCCGGAAAGUAUUAUGUUACGCCGUUCGGAUCUGCACU	-0.389
GUCCUGUGCUACACAUCGUAUGUACCGAAUCGGCCCCCGGGCCCCCGGGGCCCCCGGGAAAGUAUUAUGUUACGCCGUUCGGAUCUGCAC	-0.544
UGGAAGCUCAUACGACUGUGAAAGAAGCUGAGGAUGACAACAUCUCGGUCACAAUCCAGGCUGAAGAUGCCAUCACUCUGGAUUUUGAUG	-1.3
CACAGACAACACGCACCCACACAGACACAGAGGGAAGGGGUUGGGAUGGGGACAGGGUGCACAGCAGGGCGGGGUAGGACCCCUGCCCCU	1.37
UGGCCCUGGUGGCUUGCGGGGAGGAAGAGGUGGCCUCAUGGAUCGUGGUGGUCCCGGUGGAAUGUUCAGAGGUGGCCGUGGUGGAGACAG	0.121
